Experimental data collected from several papers.
Protocols differ between the studies behind these lines. Values joined by “and” are separate records of one study, mostly repeats; a detail may differ. ± marks the error that the study gave.
IRAK4: Interleukin-1 receptor-associated kinase 4 (IRAK4, Homo sapiens, UniProt Q9NWZ3)
Sequence of UniProt Q9NWZ3 (whole entry, looked up): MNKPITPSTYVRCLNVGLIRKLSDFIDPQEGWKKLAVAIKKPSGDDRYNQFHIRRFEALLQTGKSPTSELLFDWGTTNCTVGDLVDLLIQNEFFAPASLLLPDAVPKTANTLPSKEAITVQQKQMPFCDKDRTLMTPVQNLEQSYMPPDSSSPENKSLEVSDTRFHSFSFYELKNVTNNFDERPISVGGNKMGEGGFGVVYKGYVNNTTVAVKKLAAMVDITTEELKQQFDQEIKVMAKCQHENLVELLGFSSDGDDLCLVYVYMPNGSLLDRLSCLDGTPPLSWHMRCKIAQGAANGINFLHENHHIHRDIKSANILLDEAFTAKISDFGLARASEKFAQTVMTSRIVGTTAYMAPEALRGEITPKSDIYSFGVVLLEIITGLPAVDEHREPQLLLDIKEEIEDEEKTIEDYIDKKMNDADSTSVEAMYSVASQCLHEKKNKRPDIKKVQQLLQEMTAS
VCP: Transitional endoplasmic reticulum ATPase (VCP, Homo sapiens, UniProt P55072)
Sequence of UniProt P55072 (whole entry, looked up): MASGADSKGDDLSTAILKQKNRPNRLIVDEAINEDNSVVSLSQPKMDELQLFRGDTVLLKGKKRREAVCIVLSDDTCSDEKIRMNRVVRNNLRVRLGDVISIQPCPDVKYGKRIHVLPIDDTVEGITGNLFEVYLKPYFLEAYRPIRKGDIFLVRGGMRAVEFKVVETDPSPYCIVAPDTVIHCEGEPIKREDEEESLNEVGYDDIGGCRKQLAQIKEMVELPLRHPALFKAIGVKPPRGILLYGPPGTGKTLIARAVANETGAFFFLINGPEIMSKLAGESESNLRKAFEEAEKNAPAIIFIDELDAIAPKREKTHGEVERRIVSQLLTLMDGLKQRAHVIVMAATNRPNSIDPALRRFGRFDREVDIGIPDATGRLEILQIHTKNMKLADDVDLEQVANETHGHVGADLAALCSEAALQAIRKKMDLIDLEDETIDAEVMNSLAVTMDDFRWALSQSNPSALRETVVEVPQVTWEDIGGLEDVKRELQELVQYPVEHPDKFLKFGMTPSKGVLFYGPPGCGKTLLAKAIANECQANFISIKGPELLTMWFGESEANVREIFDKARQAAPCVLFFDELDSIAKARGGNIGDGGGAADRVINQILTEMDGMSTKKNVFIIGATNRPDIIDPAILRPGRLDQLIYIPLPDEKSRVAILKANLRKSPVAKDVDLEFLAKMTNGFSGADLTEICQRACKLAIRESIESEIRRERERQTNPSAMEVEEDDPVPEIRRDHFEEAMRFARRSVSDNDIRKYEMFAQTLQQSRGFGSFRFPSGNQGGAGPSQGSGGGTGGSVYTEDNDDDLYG
HCK: Tyrosine-protein kinase HCK (HCK, Homo sapiens, UniProt P08631)
Sequence of UniProt P08631 (whole entry, looked up): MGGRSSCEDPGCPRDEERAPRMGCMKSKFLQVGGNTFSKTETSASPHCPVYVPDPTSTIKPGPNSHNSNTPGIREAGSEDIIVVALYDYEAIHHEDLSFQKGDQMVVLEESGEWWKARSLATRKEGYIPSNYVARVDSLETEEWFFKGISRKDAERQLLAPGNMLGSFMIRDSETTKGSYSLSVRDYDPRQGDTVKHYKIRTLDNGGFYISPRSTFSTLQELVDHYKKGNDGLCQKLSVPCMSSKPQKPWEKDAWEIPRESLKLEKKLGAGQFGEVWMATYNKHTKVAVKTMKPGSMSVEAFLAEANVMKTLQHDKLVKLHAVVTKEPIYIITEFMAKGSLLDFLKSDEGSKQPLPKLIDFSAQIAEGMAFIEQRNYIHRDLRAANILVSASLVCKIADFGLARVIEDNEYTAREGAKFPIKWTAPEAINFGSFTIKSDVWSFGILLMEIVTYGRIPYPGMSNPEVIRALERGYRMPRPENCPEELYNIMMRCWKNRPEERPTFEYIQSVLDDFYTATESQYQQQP
AURKB: Aurora kinase B (AURKB, Homo sapiens, UniProt Q96GD4)
Sequence of UniProt Q96GD4 (whole entry, looked up): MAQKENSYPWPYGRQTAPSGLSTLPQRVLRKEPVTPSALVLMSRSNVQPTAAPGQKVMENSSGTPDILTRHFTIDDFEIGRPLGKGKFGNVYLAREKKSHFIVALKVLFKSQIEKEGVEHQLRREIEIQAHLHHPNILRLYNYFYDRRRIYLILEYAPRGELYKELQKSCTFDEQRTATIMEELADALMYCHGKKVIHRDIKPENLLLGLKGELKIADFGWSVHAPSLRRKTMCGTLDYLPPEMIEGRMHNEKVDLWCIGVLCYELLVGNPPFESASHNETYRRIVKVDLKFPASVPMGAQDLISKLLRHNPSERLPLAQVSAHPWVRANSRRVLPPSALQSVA
PRKD3: Serine/threonine-protein kinase D3 (PRKD3, Homo sapiens, UniProt O94806)
17-beta-hydroxysteroid dehydrogenase 13: 17-beta-hydroxysteroid dehydrogenase 13 (Homo sapiens, UniProt Q7Z5P4)
Sequence of UniProt Q7Z5P4 (whole entry, looked up): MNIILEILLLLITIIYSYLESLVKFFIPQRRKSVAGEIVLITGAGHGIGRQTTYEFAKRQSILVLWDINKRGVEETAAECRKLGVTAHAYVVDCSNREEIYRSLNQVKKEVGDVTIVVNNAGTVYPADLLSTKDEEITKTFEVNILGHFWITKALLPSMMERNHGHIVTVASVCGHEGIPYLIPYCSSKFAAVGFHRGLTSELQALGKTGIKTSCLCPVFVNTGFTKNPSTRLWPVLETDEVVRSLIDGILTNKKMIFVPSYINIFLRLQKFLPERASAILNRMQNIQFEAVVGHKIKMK
Sequence of UniProt Q91XE4 (whole entry, looked up): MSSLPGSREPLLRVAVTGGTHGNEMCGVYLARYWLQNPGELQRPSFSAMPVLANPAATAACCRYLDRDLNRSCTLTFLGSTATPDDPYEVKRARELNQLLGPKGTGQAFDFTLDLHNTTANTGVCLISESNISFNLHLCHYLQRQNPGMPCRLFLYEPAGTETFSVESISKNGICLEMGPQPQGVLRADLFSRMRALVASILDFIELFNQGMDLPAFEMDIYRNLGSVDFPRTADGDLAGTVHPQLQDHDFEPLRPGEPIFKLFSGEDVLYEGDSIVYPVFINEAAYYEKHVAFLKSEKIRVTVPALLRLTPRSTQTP
Sequence of UniProt P01111 (whole entry, unmodified, looked up): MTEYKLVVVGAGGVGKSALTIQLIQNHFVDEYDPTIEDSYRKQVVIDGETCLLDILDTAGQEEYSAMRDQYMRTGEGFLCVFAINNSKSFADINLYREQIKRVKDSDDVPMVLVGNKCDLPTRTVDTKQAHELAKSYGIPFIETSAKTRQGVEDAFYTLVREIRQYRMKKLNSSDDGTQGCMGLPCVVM
Sequence of UniProt O35955 (whole entry, looked up): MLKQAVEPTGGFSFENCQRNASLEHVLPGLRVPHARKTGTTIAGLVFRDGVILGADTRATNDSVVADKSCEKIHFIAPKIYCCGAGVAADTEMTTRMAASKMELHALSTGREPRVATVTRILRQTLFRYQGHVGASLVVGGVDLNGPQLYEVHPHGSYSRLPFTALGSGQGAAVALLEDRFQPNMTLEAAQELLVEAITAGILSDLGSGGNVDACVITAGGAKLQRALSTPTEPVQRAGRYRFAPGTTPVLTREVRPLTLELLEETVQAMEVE
Sequence of UniProt P16068 (whole entry, looked up): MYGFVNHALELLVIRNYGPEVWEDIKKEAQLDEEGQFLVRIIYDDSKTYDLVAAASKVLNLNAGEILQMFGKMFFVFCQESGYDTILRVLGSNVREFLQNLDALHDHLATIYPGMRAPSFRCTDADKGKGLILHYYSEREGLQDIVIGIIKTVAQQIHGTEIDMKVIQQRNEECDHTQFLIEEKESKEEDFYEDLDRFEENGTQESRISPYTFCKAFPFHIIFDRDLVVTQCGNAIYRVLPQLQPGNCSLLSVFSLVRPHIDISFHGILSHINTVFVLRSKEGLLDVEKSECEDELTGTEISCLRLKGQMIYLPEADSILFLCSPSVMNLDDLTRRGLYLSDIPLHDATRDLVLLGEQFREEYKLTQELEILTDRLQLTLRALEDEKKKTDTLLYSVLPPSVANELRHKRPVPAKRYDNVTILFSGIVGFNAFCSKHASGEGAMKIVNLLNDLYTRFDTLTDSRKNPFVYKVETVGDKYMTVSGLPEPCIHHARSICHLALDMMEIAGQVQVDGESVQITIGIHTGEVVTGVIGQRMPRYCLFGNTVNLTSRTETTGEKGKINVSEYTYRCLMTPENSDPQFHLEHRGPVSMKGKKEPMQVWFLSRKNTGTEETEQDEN
Sequence of UniProt O60656 (whole entry, looked up): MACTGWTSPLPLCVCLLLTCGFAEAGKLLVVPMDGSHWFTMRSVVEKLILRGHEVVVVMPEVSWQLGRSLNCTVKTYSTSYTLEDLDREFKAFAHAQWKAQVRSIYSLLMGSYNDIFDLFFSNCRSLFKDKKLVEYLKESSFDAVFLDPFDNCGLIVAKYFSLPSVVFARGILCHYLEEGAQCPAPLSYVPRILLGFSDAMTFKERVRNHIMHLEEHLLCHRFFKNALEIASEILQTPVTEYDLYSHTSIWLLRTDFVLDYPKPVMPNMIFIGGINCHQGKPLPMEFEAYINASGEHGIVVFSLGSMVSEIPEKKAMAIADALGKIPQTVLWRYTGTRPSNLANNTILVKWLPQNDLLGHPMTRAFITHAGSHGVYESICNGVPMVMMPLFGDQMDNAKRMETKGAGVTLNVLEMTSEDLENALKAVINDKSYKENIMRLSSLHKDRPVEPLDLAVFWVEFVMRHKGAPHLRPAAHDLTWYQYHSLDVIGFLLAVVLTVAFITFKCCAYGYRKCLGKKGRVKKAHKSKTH
Sequence of UniProt P00742 (whole entry, looked up): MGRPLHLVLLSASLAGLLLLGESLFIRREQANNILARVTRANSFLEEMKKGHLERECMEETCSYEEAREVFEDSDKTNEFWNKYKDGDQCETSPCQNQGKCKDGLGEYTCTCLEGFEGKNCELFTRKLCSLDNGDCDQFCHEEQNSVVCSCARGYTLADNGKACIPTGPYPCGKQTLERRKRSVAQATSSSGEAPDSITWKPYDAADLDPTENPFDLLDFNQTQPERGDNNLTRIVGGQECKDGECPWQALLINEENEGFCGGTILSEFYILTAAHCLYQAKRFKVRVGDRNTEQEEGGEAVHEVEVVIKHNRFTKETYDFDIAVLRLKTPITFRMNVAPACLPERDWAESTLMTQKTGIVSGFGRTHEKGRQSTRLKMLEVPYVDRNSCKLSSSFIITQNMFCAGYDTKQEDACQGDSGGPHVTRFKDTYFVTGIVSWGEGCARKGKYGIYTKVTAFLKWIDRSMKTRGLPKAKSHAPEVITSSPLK

| SMILES | target | assay | test system | setting | IC50 |
| --- | --- | --- | --- | --- | --- |
| CC(C)C[C@H](NC(=O)[C@H](CCc1ccccc1)NC(=O)CN1CCOCC1)C(=O)N[C@@H](Cc1ccccc1)C(=O)N[C@@H](CC(C)C)C(=O)[C@@]1(C)CO1 | Psmb10/Psmb3 (Mus musculus, UniProt O35955+Q9R1P1) | proteasome subunit activity | Ba/F3 BCR-ABL1 H396P | 1 h pulse | 38.2 ± 2.03 nM |
| CNC(=O)c1ccccc1Nc1nc(Nc2ccnc(CO)c2)ncc1Cl | IRAK4 |  |  | cell-based | 23.5 ± 2.52 nM |
| COc1ccc(Nc2nc(NCc3ccccc3)c3ccccc3n2)cc1 | VCP | enzyme activity, inhibitor |  |  | 3800 ± 500 nM |
| Cc1ccc(-n2sc3ccccc3c2=O)cc1 | HCK | inhibitor, Z'-Lyte kinase |  | without Nef | > 50000 nM |
| COc1ccc(-c2nc(NCc3ccc(F)cc3)c3ccccc3n2)cc1 | VCP | enzyme activity, inhibitor |  |  | 7800 ± 400 nM |
| O=c1nc(SCc2cc(F)cc(C(F)(F)F)c2)nc(SCc2ccc3nc(Cl)ccc3c2)[nH]1 | TOP2A (Homo sapiens, UniProt P11388) | ATPase activity, ATP-competitive inhibitor |  | added: ATP 0.25 mM | 25600 nM |
| COc1cc2nccc(Oc3ccc(NC(=O)c4cc5c(n(-c6ccccc6)c4=O)CCCC5=O)nc3)c2cc1OC | HCK | cell viability, CellTiter-Glo | Ba/F3 expressing recombinant kinase | 48 h | > 100 nM |
| C#Cc1cnc(Nc2ccc(CO)nc2)nc1Nc1ccccc1S(C)(=O)=NC#N (stereo not shown) | IRAK4 |  |  | cell-based | 16.4 ± 2.95 nM |
| Cc1cnc(-c2ccc(-c3ccc(NC(=O)Nc4c(F)cc(F)cc4F)cc3F)c3c2C(=O)NC3)[nH]1 | AURKB | enzyme activity, inhibitor |  |  | 32.7 nM |
| O=C1N[C@H](c2cncc(C#Cc3ccccc3)c2)[C@@H](c2ccccc2Cl)O1 | Metabotropic glutamate receptor 5 (Macaca mulatta, UniProt A0ACM8QRY8) | receptor occupancy, PET | rhesus monkey, total plasma concentration |  | 66.2 nM |
| Nc1nc2c([nH]c(=O)n2[C@@H]2O[C@H](CO[P@@](=O)(O)O[P@@](=O)(O)OP(=O)(O)O)[C@@H](O)[C@H]2O)c(=O)[nH]1 | GUCY1B1/GUCY1A1 (Bos taurus, UniProt P16068+P19687) | NO-stimulated cGMP formation, inhibitor |  |  | 288000 nM |
| CC(C)NC(=O)COc1cccc(-c2nc(Nc3ccc4[nH]ncc4c3)c3ccccc3n2)c1 | UGT1A9 (Homo sapiens, UniProt O60656) | enzyme activity, inhibitor | recombinant UGT microsomes | added: niflumic acid | 861 nM |
| COc1c(Cl)cccc1Nc1c(-c2ccncc2OC[C@@H]2COCCO2)[nH]c2c1C(=O)NCC2 | PRKD3 | kinase activity, inhibitor, TR-FRET |  | median value, added: ATP 2 mM | 340 nM |
| O=c1c2ccccc2[se]n1-c1ccccc1 | N-acyl-aromatic-L-amino acid amidohydrolase (carboxylate-forming) (Acy3, Mus musculus, UniProt Q91XE4) |  |  | added: NA-Tyr substrate | 1 nM and ~1 nM |
| COc1ccc(-c2nc(NCc3ccc(Cl)cc3)c3ccccc3n2)cc1 | VCP | enzyme activity, inhibitor |  |  | 8000 ± 2000 nM |
| O=C(O)c1ccc(NS(=O)(=O)c2ccc(Cl)c(Cl)c2)c2ncccc12 | 17-beta-hydroxysteroid dehydrogenase 13 | estradiol turnover, inhibitor, LC-MS |  | added: β-estradiol | 3400 nM |
| CCc1ccc(-c2ccc3c(C(=O)c4cc(OC)c(O)c(OC)c4)c[nH]c3c2)cc1 | Tubulin alpha-1B chain/TUBB2B (Bos taurus, UniProt P81947+Q6B856) | tubulin polymerization, inhibitor, turbidimetric |  | added: 10 µM bovine tubulin | > 20000 nM |
| CNC(=O)c1ccccc1Nc1nc(Nc2ccc(CO)cc2)ncc1C1CC1 | IRAK4 |  |  | cell-based | 31.6 ± 3.56 nM |
| Cc1ccc(Nc2nc(NCc3ccccc3)c3ccccc3n2)cc1 | VCP | enzyme activity, inhibitor |  |  | 2200 ± 400 nM |

| SMILES | target | assay | test system | setting | IC50 |
| --- | --- | --- | --- | --- | --- |
| C=CC(=O)N1CCN(c2nc(=O)n(-c3c(C)ccnc3C(C)C)c3nc(-c4c(O)cccc4F)c(F)cc23)[C@@H](C)C1 | GTPase NRas (NRAS, Homo sapiens, UniProt P01111, C181S/C186S/G12C) |  |  |  | 57 nM |
| COc1ccc(Nc2nc(N3CCN(c4ccc([N+](=O)[O-])cc4)CC3)nc3ccccc23)cc1 | VCP | enzyme activity, inhibitor |  |  | 30000 ± 6000 nM |
| Fc1ccc(-c2nc(C3CCCCC3)[nH]c2-c2ccncc2)cc1 | TGFBR2 (Homo sapiens, UniProt P37173) | inhibitor |  |  | 245 ± 40.2 nM |
| N=C(NCCCSC[C@H]1O[C@@H](n2cnc3c(NCCCc4ccccc4)ncnc32)[C@H](O)[C@@H]1O)NCC1CCCCC1 | PRMT1 (Homo sapiens, UniProt Q99873) | enzyme activity, inhibitor, SAHH-coupled fluorescence |  | added: 5 µM histone H4 peptide, 10 µM SAM | 1210 ± 70 nM |
| Cc1c(C)c2c(c(C)c1O)CCC(C)(COc1ccc(CC3SC(=O)NC3=O)cc1)O2 (stereo not shown) | Gq heterotrimer (Gαq Gβ1γ2) |  |  | 20 min, pH 7.4, M1 receptor membranes, added: carbachol 50 µM | ~31700 nM |
| COc1cccc2c(NCc3ccccn3)nc(N3CCOc4ccccc43)nc12 | VCP | enzyme activity, inhibitor |  |  | 19000 ± 5000 nM |
| CC[C@@H]1[C@H](F)C(=O)N[C@@H]1COc1nccc2cc(C(N)=O)c(OC)cc12 | FER (Homo sapiens, UniProt P16591) | ATP probe binding, KiNativ profiling, measured: Lys1 probe site | THP-1 cell lysate |  | > 5000 nM |
| Cn1cc2c(C(=O)O)ccc(NS(=O)(=O)c3ccc(OCC4CCC4)c(Cl)c3)c2n1 | 17-beta-hydroxysteroid dehydrogenase 13 | inhibitor, NAD(P)H-Glo |  | added: β-estradiol | 10 nM |
| CN1CCN(c2ccc(Nc3ncc4cc(C#N)c(=O)n(C5CCCC5)c4n3)cc2)CC1 | AURKB |  |  |  | 259 nM |
| COc1ccc(-c2ccc3ncc4c(c3c2)n([C@@H]2CCN(C)CC2(F)F)c(=O)n4C)cn1 | IRAK4 | enzyme activity, inhibitor |  |  | 195 ± 2 nM |
| CC(C)(C)n1nc(-c2cnc3cc(OC4CC4)ccc3c2)c(C(N)=O)c1N | PRKD3 | binding |  |  | > 10000 nM |
| [Cl-].[Cl-].[Zn+2] | HVCN1 (Homo sapiens, UniProt Q96D96, E119H) | whole-cell voltage clamp |  | 120 mV, open probability 0.3 | 510 nM |
| COc1ccnc(CNC(=O)c2cn(Cc3ccc(Cn4ccccc4=O)cc3)nc2C2CC2)c1F | F10 (Homo sapiens, UniProt P00742) |  |  |  | 8600 nM |
| CC[C@H](C)[C@H](NC(=O)[C@H](CS)NC(=O)[C@H](CCC(=O)O)NC(=O)[C@H](C)NC(=O)[C@@H](NC(=O)[C@@H](N)CCCNC(=N)N)[C@@H](C)CC)C(=O)N[C@@H](CC(C)C)C(=O)NCC(=O)N[C@@H](CCSC)C(=O)O | HLA class I histocompatibility antigen, A alpha chain, allele A*02:06 (Homo sapiens, UniProt P04439) | binding, competitor, radioligand competition |  | two days, room temperature, HLA-A*02:06 | 1680 nM |
| Clc1ccccc1CNc1nc(-c2ccccc2)nc2ccccc12 | VCP | enzyme activity, inhibitor |  |  | 30000 ± 10000 nM |
| Cn1cc2c(C(=O)O)ccc(NS(=O)(=O)c3ccc(Cl)c(Cl)c3)c2n1 | 17-beta-hydroxysteroid dehydrogenase 13 | estradiol turnover, inhibitor, LC-MS |  | added: β-estradiol | 1200 nM |
| c1ccc(CNc2nc(-c3ccccc3)nc3ccccc23)cc1 | VCP | enzyme activity, inhibitor |  |  | 4200 ± 2300 nM |
| Cc1cc(C)nc(NC(=S)N2CCN(c3ccncc3)CC2)c1 | MAPK12 (Homo sapiens, UniProt P53778) | kinase activity, inhibitor, ADP-Glo |  |  | 1000 nM |

Excerpt of the above:
| SMILES | target | assay | test system | setting | IC50 |
| --- | --- | --- | --- | --- | --- |
| CNC(=O)c1ccccc1Nc1nc(Nc2ccc(CO)cc2)ncc1C1CC1 | IRAK4 |  |  | cell-based | 31.6 ± 3.56 nM |
| Cc1ccc(Nc2nc(NCc3ccccc3)c3ccccc3n2)cc1 | VCP | enzyme activity, inhibitor |  |  | 2200 ± 400 nM |
| C=CC(=O)N1CCN(c2nc(=O)n(-c3c(C)ccnc3C(C)C)c3nc(-c4c(O)cccc4F)c(F)cc23)[C@@H](C)C1 | GTPase NRas (NRAS, Homo sapiens, UniProt P01111, C181S/C186S/G12C) |  |  |  | 57 nM |
